Experimental data gathered from unrelated publications.
Protocols differ between the studies behind these lines.

Compound | assay | system | setting | endpoint | value
CCOc1c([C@H](C)n2nc(C)c3c(N)ncnc32)cc(Cl)c(F)c1[C@@H]1CNC(=O)C1 |  | patients, monotherapy | oral, 15 mg once daily, cycle 1 day 1 | Tmax median | 1 h
CN(CCC(=O)O)C(=O)c1ccc2c(c1)CC[C@@H]1[C@@H]2CC[C@]2(C)C(c3cncc(F)c3)=CC[C@@H]12 |  | postmenopausal women, plasma | 90 mg single dose, median | Tmax | 1.52 h
C[C@H]1CN(C(=O)CC#N)[C@]12CCN(c1ncnc3[nH]ccc13)C2 |  | healthy adults, plasma | oral, 1.5 mg single dose, median | Tmax | 1 h
O=C([O-])CCCCCCCNC(=O)c1ccccc1O.[Na+] |  | healthy male and female subjects | without semaglutide, median | tmax | 0.7 h
CO[C@H]1CC[C@H](N2C(=O)CNc3ncc(-c4ccc(C(C)(C)O)nc4)nc32)CC1 |  | patients, plasma | oral, 30 mg, day 15, median | Tmax | 1.28 h
C[C@@H](N)C1CCN(S(=O)(=O)c2cccc3cnccc23)CC1 |  | healthy volunteers, fasted, plasma | oral, 250 mg | tmax | 0.5 h
C=CC(=O)NC1CCN(c2ncc3ncnc(Nc4ccc(Oc5ccc6c(c5)ncn6C)c(C)c4)c3n2)CC1 | item: total radioactivity | healthy male volunteers, plasma | oral solution, 60 mg, together with: [14C]-labelled compound | tmax | 1 h
CCCCC[C@H](O)CC[C@@H]1[C@H]2Cc3cccc(OCC(=O)O)c3C[C@H]2C[C@H]1O | LC-MS/MS | Japanese IPAH/HPAH patients, plasma | inhaled, 54 µg, mean | Tmax | 0.23 h

For quick reference, copied from above:
Compound | assay | system | setting | endpoint | value
CCCCC[C@H](O)CC[C@@H]1[C@H]2Cc3cccc(OCC(=O)O)c3C[C@H]2C[C@H]1O | LC-MS/MS | Japanese IPAH/HPAH patients, plasma | inhaled, 54 µg, mean | Tmax | 0.23 h
